Assay results of several laboratories.
Every numbered part comes from another study and shows a few of its results, in no order. Changes are numbered by the printed parent chain.

Block 1
Target: OGT, full length, His-tagged (human)
Method: phage display, sequencing
Matrix: in vitro
Concentration: 1 µg OGT
Setting: single substitutions, 15-mer displayed peptide, unchanged parent 16.7
Baseline: input library
Reading: higher = stronger binding
Starting sequence: peptide; NSEYMPQYQIIFAHQ
With `NSEYMPQYQIIFAHE [Q15E]` the fold enrichment was 18.5 fold.
With `NSEYMWQYQIIFAHQ [P6W]` the fold enrichment was 2.89 fold.
`NSEYMPQYQIIFAHI [Q15I]` has a fold enrichment of 9.06 fold.
The fold enrichment of `NSEYMPQYQIIFTHQ [A13T]` is reported as 25.6 fold.
`NSEYMPQYQIQFAHQ [I11Q]` has a fold enrichment of 18.6 fold.
`NSEYMPQYQVIFAHQ [I10V]` has a fold enrichment of 0.833 fold.
With `NWEYMPQYQIIFAHQ [S2W]` the fold enrichment was 13.1 fold.
For `GSEYMPQYQIIFAHQ [N1G]`, the fold enrichment was 15.7 fold.
With `NSEYMDQYQIIFAHQ [P6D]` the fold enrichment was 0.963 fold.
The fold enrichment of `NSIYMPQYQIIFAHQ [E3I]` is reported as 17.7 fold.
`NSEYMPQYQIRFAHQ [I11R]` has a fold enrichment of 9.21 fold.
For `NSQYMPQYQIIFAHQ [E3Q]`, the fold enrichment was 18.2 fold.
For `NSEYMPQYQIIFYHQ [A13Y]`, the fold enrichment was 7.32 fold.
`NSEYMPQYQIIFAHG [Q15G]` has a fold enrichment of 11.4 fold.
The fold enrichment of `NSEPMPQYQIIFAHQ [Y4P]` is reported as 1.13 fold.
`NSEYMPQYVIIFAHQ [Q9V]` gave a fold enrichment of 2.02 fold.
`NSEQMPQYQIIFAHQ [Y4Q]` has a fold enrichment of 0.991 fold.
`NSEYVPQYQIIFAHQ [M5V]` has a fold enrichment of 4.87 fold.
With `NSEYMPQYQYIFAHQ [I10Y]` the fold enrichment was 0.859 fold.
With `NSTYMPQYQIIFAHQ [E3T]` the fold enrichment was 17 fold.
`NSEYMPQYQIYFAHQ [I11Y]` has a fold enrichment of 11.7 fold.
`NSEYMPDYQIIFAHQ [Q7D]` has a fold enrichment of 0.914 fold.
`NSEYMPQYQIMFAHQ [I11M]` gave a fold enrichment of 16.7 fold.
For `NSNYMPQYQIIFAHQ [E3N]`, the fold enrichment was 12.1 fold.
With `NSEYMPQYQIIFAHD [Q15D]` the fold enrichment was 15 fold.

Block 2
Target: ABI1, truncated, D143A, DHFR fusion (Arabidopsis thaliana)
Method: DHFR PCA, deep sequencing
Matrix: yeast
Setting: methotrexate growth selection, single substitutions
Together with: (+)-ABA 200 µM
Baseline: wild-type fitted maximum
Reading: higher = stronger binding
Starting sequence: PYL1, truncated, DHFR fusion (Arabidopsis thaliana); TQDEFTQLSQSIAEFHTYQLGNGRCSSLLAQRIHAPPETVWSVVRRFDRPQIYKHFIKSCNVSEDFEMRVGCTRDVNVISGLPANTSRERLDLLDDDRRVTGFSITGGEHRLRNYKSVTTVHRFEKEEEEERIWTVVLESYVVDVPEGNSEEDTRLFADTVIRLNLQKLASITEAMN
Under “relative binding score”, `D153W` is recorded as 2.96%.
`S117L`: “relative binding score” 2.77%.
`L164R`: “relative binding score” 101%.
`R113S` — result for “relative binding score”: 100%.
`K58C`: “relative binding score” 88.3%.
`A84F` — result for “relative binding score”: 49.6%.
Under “relative binding score”, `E109T` is recorded as 106%.
`L138R`: “relative binding score” 16.4%.
For `V44H`, “relative binding score” read -40.2%.
`A35F` — result for “relative binding score”: -5.24%.
`I12N` — result for “relative binding score”: 42.1%.
Under “relative binding score”, `R45G` is recorded as 46.6%.
`S80G` — result for “relative binding score”: 53.9%.
`T120C`: “relative binding score” 19.5%.
For `I133R`, “relative binding score” read 106%.
For `S26L`, “relative binding score” read 43.3%.

Block 3
Target: Histone acetyltransferase KAT6A, both winged helices, GST fusion (KAT6A, Homo sapiens, UniProt Q92794, residues 1-181)
Method: protein binding microarray
Molecule type: double-stranded DNA, one strand shown
Matrix: in vitro
Concentration: not given
Setting: 8-mer, flanks averaged, mean of 2 arrays, mostly near background
Baseline: not given
Reading: higher = stronger binding
Target sequence (chain): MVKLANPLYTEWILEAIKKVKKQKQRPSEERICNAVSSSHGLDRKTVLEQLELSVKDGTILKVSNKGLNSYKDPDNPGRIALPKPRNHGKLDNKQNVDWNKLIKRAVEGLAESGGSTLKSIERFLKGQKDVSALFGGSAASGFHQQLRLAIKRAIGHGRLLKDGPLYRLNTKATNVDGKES
`ACGCTGGG` has an E-score of 0.00385.
`CGAGCTGC` has an E-score of -0.0145.
With `GCTGCAAC` the E-score was 0.0975.
For `AGAGGAAA`, the E-score was -0.107.
`ATCCCGCC` has an E-score of 0.267.
With `ACGAATAC` the E-score was -0.147.
`AACGCTTG` has an E-score of -0.0342.
`GCTCAACC` has an E-score of -0.0677.
The E-score of `GGGCACCC` is reported as 0.0724.
With `CACAAACC` the E-score was -0.185.
`CGTTTAAC` has an E-score of 0.0696.
`CATGCGCC` has an E-score of 0.193.
`TCCGCTCA` gave an E-score of 0.0506.
With `AATCGAAT` the E-score was -0.0189.
The E-score of `AGGTTCCG` is reported as 0.203.
`CTAGAAGA` has an E-score of -0.209.
`GGAGAAGA` gave an E-score of -0.0953.
With `ACGCGCCT` the E-score was 0.22.
With `GCCAACAC` the E-score was 0.0924.
`GTAACAAC` has an E-score of -0.163.
The E-score of `AGAGATAG` is reported as -0.047.
The E-score of `CCTGAGTC` is reported as 0.0226.
`CGTCGTCC` gave an E-score of 0.16.
`ATCGAAAT` has an E-score of 0.0475.
The E-score of `AATGGCGC` is reported as 0.241.

Block 4
Target: CREB3, bZIP domain (human)
Method: DHFR protein complementation
Matrix: yeast
Setting: single substitutions, most at no-binding floor
Baseline: wild-type JUN-FOS pair
Reading: higher = stronger binding
Starting sequence: JUN, bZIP domain (human); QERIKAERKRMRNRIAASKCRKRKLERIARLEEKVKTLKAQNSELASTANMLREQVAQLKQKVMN; partner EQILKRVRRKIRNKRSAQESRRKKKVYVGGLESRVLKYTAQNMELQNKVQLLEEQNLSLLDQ
The binding fitness of `L45G` is reported as -1.5 natural log.
`E33M` gave a binding fitness of -1.46 natural log.
For `L38N`, the binding fitness was -1.44 natural log.
`S43L` gave a binding fitness of -1.4 natural log.
For `L38G`, the binding fitness was -1.51 natural log.
With `A57L` the binding fitness was -1.38 natural log.
The binding fitness of `R30N` is reported as -1.48 natural log.
With `L31G` the binding fitness was -1.51 natural log.
`R30T` gave a binding fitness of -1.09 natural log.
The binding fitness of `E54Q` is reported as -1.4 natural log.
`T48L` gave a binding fitness of -1.39 natural log.
With `S43V` the binding fitness was -1.43 natural log.
`A46H` gave a binding fitness of -1.5 natural log.
With `L52G` the binding fitness was -1.5 natural log.
`L45V` gave a binding fitness of -1.54 natural log.
`M51H` gave a binding fitness of -1.26 natural log.
With `N42V` the binding fitness was -1.44 natural log.
`M51E` has a binding fitness of -1.4 natural log.
For `R53N`, the binding fitness was -1.53 natural log.
`L31A` has a binding fitness of -1.42 natural log.

Block 5
Target: CCNE2, cyclin fold, Cln2 fusion (human)
Method: yeast growth competition, sequencing
Matrix: yeast
Setting: weak parent motif
Baseline: not given
Reading: higher = stronger binding
Starting sequence: MICAL3 docking peptide (human); LQLRRQLSFSEDS
Under “normalised enrichment score”, `Q2T` is recorded as 0.17.
`R5G` — result for “normalised enrichment score”: 0.0485.
Under “normalised enrichment score”, `E11Q` is recorded as 0.259.
For `S8G`, “normalised enrichment score” read 0.254.
For `Q6G`, “normalised enrichment score” read -0.0835.
Under “normalised enrichment score”, `D12F` is recorded as 0.915.
Under “normalised enrichment score”, `Q6T` is recorded as 0.0112.
Under “normalised enrichment score”, `R5A` is recorded as -0.0812.
`L7G`: “normalised enrichment score” -0.159.
`F9N`: “normalised enrichment score” -0.0682.
Under “normalised enrichment score”, `E11R` is recorded as 0.618.
`Q6E`: “normalised enrichment score” 0.0958.
Under “normalised enrichment score”, `Q2V` is recorded as 0.544.
`D12Y` — result for “normalised enrichment score”: 0.347.
For `F9W`, “normalised enrichment score” read 0.0269.
`Q2F`: “normalised enrichment score” 0.625.
For `D12W`, “normalised enrichment score” read 0.702.
`D12M`: “normalised enrichment score” 0.542.
For `L3N`, “normalised enrichment score” read 0.0326.
Under “normalised enrichment score”, `L3Y` is recorded as 0.783.

Block 6
Target: Phosphate system positive regulatory protein PHO4, full length, GST-tagged (PHO4, Saccharomyces cerevisiae, UniProt P07270, residues 1-312)
Method: competition protein-binding microarray
Molecule type: double-stranded DNA, one strand shown
Matrix: in vitro
Concentration: 2 µM
Setting: whole 60-bp probe, lowest competitor level
Together with: Cbf1 competitor, 0.05 µM
Reading: higher = stronger binding
Residues (chain): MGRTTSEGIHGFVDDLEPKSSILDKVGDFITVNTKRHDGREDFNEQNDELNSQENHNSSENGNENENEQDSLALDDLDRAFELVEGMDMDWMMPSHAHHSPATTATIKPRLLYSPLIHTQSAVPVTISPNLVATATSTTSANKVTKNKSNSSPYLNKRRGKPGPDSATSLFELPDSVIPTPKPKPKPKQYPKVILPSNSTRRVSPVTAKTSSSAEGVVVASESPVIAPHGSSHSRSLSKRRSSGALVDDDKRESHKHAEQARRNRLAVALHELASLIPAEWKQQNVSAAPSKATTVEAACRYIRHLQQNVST
For `TGCGCAACAACTTGCCGCGTGGGTGTATGTCTAGAAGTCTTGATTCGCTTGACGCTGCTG`, the fluorescence intensity was 11300 a.u.
For `CAGGCAAAAGCGTTACACGTGACGGTGGTATGATCGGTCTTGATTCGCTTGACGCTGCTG`, the fluorescence intensity was 14000 a.u.
`TCCAGCAGAACCAGCCATGTGCGAAGAAAAACAATTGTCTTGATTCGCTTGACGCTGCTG` has a fluorescence intensity of 10000 a.u.
The fluorescence intensity of `TTCAAGCTAAATGAAAATGATTTAAAGACATATAATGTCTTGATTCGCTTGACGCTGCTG` is reported as 3460 a.u.
For `CTGTGTGCCATTAGCCATGTGATGGGCCTATTAATGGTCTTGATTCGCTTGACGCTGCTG`, the fluorescence intensity was 9670 a.u.
The fluorescence intensity of `CTTCTGTAAATTTGGACAGTGGGTGGACGCGCCCCGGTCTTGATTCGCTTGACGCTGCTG` is reported as 3910 a.u.
The fluorescence intensity of `GCATTAGGTACGATGCACGGGTGCACTGTTAAAAAAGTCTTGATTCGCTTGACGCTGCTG` is reported as 8740 a.u.
With `ACACACAAATAGTTACACGTGAGAGAAAGGAAGGTAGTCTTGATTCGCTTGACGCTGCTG` the fluorescence intensity was 14700 a.u.
With `TAAAACCTCGTCTGAATCGTGATGGCCCTCAGAATCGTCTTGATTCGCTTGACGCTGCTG` the fluorescence intensity was 3280 a.u.
For `TGCGCAACAACTTGCGGTGTGGGTGTATGTCTAGAAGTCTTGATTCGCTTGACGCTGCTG`, the fluorescence intensity was 5580 a.u.
With `AGTTGCTTTCATTTCGGCGTGATGGTACGGCACCCAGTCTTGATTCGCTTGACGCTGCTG` the fluorescence intensity was 4670 a.u.
For `CGTCCTAGTGATTGCAGGGTGGGTGCCATGAGGAAGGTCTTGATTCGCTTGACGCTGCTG`, the fluorescence intensity was 7450 a.u.
The fluorescence intensity of `GCTTCTCAACTACAGCTCGTGTTCCTCTTGCAGCAAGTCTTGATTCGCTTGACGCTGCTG` is reported as 9780 a.u.
`ATCCCTTGCCCAAAGGGCGTGCAAACCGAGTCTAGCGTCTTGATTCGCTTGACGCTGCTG` gave a fluorescence intensity of 8190 a.u.
`AGGTTTCGCCATAGCCATGTGCCTATATTAAATAGAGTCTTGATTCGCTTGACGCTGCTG` gave a fluorescence intensity of 11600 a.u.
With `GTAGACGCAAACCATCACGTACTTCATTTGAGGTTCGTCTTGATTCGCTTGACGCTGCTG` the fluorescence intensity was 5600 a.u.
`CGGGGTTAAGTTTGTCTAGTGGGTGGCTTGCAGCAGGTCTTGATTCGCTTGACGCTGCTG` gave a fluorescence intensity of 4910 a.u.

A few entries again (block 4):
`S43L` gave a binding fitness of -1.4 natural log.
`M51H` gave a binding fitness of -1.26 natural log.
`E33M` gave a binding fitness of -1.46 natural log.
`R30T` gave a binding fitness of -1.09 natural log.
The binding fitness of `E54Q` is reported as -1.4 natural log.
`L31A` has a binding fitness of -1.42 natural log.
With `N42V` the binding fitness was -1.44 natural log.
